Measured values from different studies.
Parts stem from different laboratories: compare values within a part only.

Block 1 — organism: SARS-CoV-2; read-out: cytopathic effect; cell line: Vero E6; concentration: 10 µM
| Compound | inhibition [%] |
| --- | --- |
| N#CSc1cc(SC#N)c(N)nc1N | -34.3 |
| CC(C)(C)NC(=O)N[C@H](C(=O)N1C[C@H]2[C@@H]([C@H]1C(=O)NC(CC1CCC1)C(=O)C(N)=O)C2(C)C)C(C)(C)C (stereo partly drawn) | 0.9 |
| C[n+]1c2cc(N)ccc2cc2ccc(N)cc21.Nc1ccc2cc3ccc(N)cc3nc2c1 | -26.7 |
| CC(Cc1ccc(O)c(O)c1)C(C)Cc1ccc(O)c(O)c1 (stereo not drawn) | -9 |

Block 2 — method: universal PBM; form: double-stranded DNA, one strand shown; medium: in vitro; concentration: not given; direction: higher = stronger binding
Target: Sal-like protein 4, full length isoform B (SALL4, Homo sapiens, UniProt Q9UJQ4-2, residues 1-616)
Notes: 8-mer, flanks averaged, mean of replicates
Construct (chain): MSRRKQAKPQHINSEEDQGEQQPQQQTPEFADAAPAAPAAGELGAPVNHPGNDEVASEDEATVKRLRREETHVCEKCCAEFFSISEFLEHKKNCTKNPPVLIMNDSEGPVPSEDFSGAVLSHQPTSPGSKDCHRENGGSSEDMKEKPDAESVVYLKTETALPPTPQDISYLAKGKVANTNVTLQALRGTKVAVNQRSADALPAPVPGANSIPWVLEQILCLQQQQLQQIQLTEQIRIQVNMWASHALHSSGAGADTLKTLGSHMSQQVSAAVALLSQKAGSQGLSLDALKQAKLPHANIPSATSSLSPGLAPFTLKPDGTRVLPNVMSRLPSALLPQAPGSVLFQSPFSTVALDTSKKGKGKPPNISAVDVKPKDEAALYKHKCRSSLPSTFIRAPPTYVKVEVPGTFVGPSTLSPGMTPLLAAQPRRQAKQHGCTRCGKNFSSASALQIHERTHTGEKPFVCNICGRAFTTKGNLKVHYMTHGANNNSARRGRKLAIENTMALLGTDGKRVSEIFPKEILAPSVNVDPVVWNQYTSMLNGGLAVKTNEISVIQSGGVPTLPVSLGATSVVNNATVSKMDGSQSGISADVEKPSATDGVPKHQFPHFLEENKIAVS
| Sequence | E-score |
| --- | --- |
| AACGCATG | 0.0434 |
| ATGACCGC | -0.242 |
| CACACGAC | -0.052 |
| CAGTAGCG | -0.184 |
| CCTCGTGA | 0.00392 |
| AGCTATTG | 0.0722 |
| CGTTCGGA | -0.291 |
| CTGTGCGA | -0.0171 |

Block 3 — cell line: HEK-293T; read-out: pseudovirus infection; method: FDA-approved drug library screen; organism: VSV pseudotyped with SARS-CoV-2 spike; concentration: 10 µM; time: 16 h; relative to: vehicle-treated
| SMILES | GFP-positive cells |
| --- | --- |
| CN(C)CCc1c[nH]c2ccc(C[C@H]3COC(=O)N3)cc12 | 87.8% |
| Nc1nc2c(ncn2COCCO)c(=O)[nH]1 | 92.5% |
| CN(C/C=C/C#CC(C)(C)C)Cc1cccc2ccccc12 | 64.3% |
| N[C@@H](CC(=O)N1CCn2c(nnc2C(F)(F)F)C1)Cc1cc(F)c(F)cc1F | 110% |

Block 4 — read-out: enzyme activity; action: inhibitor; concentration: 20 µM
Target: Replicase polyprotein 1ab, polymerase (rep, Severe acute respiratory syndrome coronavirus 2, UniProt P0DTD1)
| SMILES | inhibition [%] |
| --- | --- |
| CCN(CC)CCNC(C(=O)OCCC(C)C)c1ccccc1 (stereo not drawn) | -2.84 |
| FC(F)(F)c1ccc(CNc2ccc(Cc3c[nH]c4ncccc34)cn2)cc1 | -2.4 |
| C[C@@H]1CC[C@@]2(OC1)O[C@H]1C[C@H]3[C@@H]4CC=C5C[C@@H](O)CC[C@]5(C)[C@H]4CC[C@]3(C)[C@H]1[C@@H]2C | -5.58 |
| CCC[C@@]1(CCc2ccccc2)CC(O)=C([C@H](CC)c2cccc(NS(=O)(=O)c3ccc(C(F)(F)F)cn3)c2)C(=O)O1 | -3.19 |
| O=c1cc(N2CCOCC2)oc2c(-c3cccc4c3sc3ccccc34)cccc12 | -0.05 |
| CC1Sc2c(C(=O)O)c(=O)c3cc(F)c(N4CCNCC4)cc3n21 (stereo not drawn) | -3.66 |
| O=C(O)c1ccccc1Nc1cc(Cl)ccc1C(=O)O | 3.99 |
| NC(=O)C1=CN([C@@H]2O[C@H](COP(=O)(O)OP(=O)(O)OC[C@H]3O[C@@H](n4cnc5c(N)ncnc54)[C@H](OP(=O)(O)O)[C@@H]3O)[C@@H](O)[C@H]2O)C=CC1 | 36.5 |
| CC(C)OC(=O)Nc1cccc(Cl)c1 | 4.22 |
| N#Cc1cccc(-c2nc(-c3cccnc3)no2)c1 | -0.57 |
| C[C@]12CC[C@H](O)C[C@H]1CC[C@@H]1[C@@H]2CC[C@]2(C)[C@@](O)(c3ccoc3)CC[C@]12O | -7.46 |
| CN(C)C/C=C/C(=O)Nc1cccc(C(=O)Nc2cccc(Nc3ncc(Cl)c(-c4c[nH]c5ccccc45)n3)c2)c1 | 2.14 |
| CC(=O)OC/C=C(C)/C=C/C=C(C)/C=C/C1=C(C)CCCC1(C)C | 1.04 |
| CN(C)CCC(c1ccc(Cl)cc1)c1ccccn1 (stereo not drawn) | -12.9 |
| Cc1oc(-c2ccccc2)nc1CCC(=O)c1ccc(CC2SC(=O)NC2=O)cc1 (stereo not drawn) | 5.37 |
| O=C(O)CCCO | 5.04 |
| CCC(=O)O[C@H](CC(=O)O)C[N+](C)(C)C | 1.62 |
| Cc1ccc(N2CCN(CCC3NC(=O)c4ccccc43)CC2)cc1C (stereo not drawn) | 3.28 |
| NC[C@H]1O[C@H](O[C@H]2[C@H](O)[C@@H](O[C@H]3O[C@H](CO)[C@@H](O)[C@H](N)[C@H]3O)[C@H](N)C[C@@H]2N)[C@H](N)C[C@@H]1O | 19.1 |
| CCc1ccc(C2=CC(C)(C)Sc3ccc(C#Cc4ccc(C(=O)O)cc4)cc32)cc1 | 0.29 |
| CNCC/C=C/c1cccnc1 | -1.09 |
| CCOC(=O)[C@H](CCc1ccccc1)N[C@@H](C)C(=O)N1C(=O)N(C)C[C@H]1C(=O)O | -2.21 |
| CN(C)Cc1cccc(N=C(c2ccccc2)c2c(O)[nH]c3cc(C(=O)N(C)C)ccc23)c1 | -0.55 |
| CN1CCN(c2cccc(Nc3nc4c(-c5ccc(S(C)(=O)=O)cc5)cccn4n3)c2)CC1 | 5.47 |
| O=C(O)C(Cc1ccccc1)CN(O)C(=O)Cc1ccccc1 (stereo not drawn) | 2.46 |

Block 5 — method: protein-binding microarray; form: double-stranded DNA, one strand shown; medium: in vitro; concentration: 0.8 µM; notes: whole 60-bp probe, no competitor; direction: higher = stronger binding; shared flanks, not repeated: … GTCTTGATTCGCTTGACGCTGCTG
Target: Centromere-binding protein 1, full length, N-terminal tag (CBF1, Saccharomyces cerevisiae, UniProt P17106, residues 1-351)
Sequence of UniProt P17106 (whole entry, looked up): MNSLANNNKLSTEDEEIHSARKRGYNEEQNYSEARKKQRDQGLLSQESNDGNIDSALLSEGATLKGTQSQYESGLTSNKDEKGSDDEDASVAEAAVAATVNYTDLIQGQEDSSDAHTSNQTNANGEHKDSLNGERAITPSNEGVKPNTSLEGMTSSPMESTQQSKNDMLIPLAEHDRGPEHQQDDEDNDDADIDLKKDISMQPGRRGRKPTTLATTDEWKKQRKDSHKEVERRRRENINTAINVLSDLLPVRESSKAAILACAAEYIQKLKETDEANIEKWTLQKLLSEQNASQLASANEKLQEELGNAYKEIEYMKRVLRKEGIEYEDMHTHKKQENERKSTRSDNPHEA
| Sequence | fluorescence intensity [a.u.] |
| --- | --- |
| GAATTACGTATTGGTGGTGTGGGTGGGGACTTTTAG | 473 |
| CTATGAACAGAAACAAATCACATGTTTCCTTGGTTC | 3150 |
| GAATTTATATGCAATTTCGTGATCTGGGCGGTTTAG | 574 |
| CTACCACTCTGGAACGCCGTGACCAGCTCAGCCTTC | 630 |
| GAATTCAGAGTCAACGTGATCGTTCTAACTTTCTAG | 1890 |
| CTATCCGTGGTGCGTGATCTGATGAGAAATAAATTC | 1200 |
| TGTACGAAGCTATCGCACCTGATTATAGTAGTTAGG | 668 |
| TGTACGAAGCTATAGCGTGCGTTTATAGTAGTTAGG | 556 |

Block 6 — method: protein-binding microarray; form: double-stranded DNA, one strand shown; medium: in vitro; concentration: 250 nM; notes: 60-bp whole probe; with: salmon DNA 0.4 mg/ml; relative to: random background probes; direction: higher = stronger binding; shared flanks, not repeated: GCCTAGCAC … GTCTTGATTCGCTTGACGCTGCTG
Target: Interferon regulatory factor 5, full length, phosphomimetic (IRF5, Homo sapiens, UniProt Q13568-2, residues 1-514, K96S/S451D/S453D/S456D/S462D)
| Sequence | log fluorescence |
| --- | --- |
| TTAGATTTCGGTTCCGGTTAGTGCTAG | 8.76 z-score |
| GACGGTTTCCTTTCCATGACGTGCTAG | 1.2 z-score |
| AGAGAGAGAGAGAGAGAGAGGTGCTAG | 0.129 z-score |
| CTGCGGTGAGTGCGTTATCGGTGCTAG | 0.448 z-score |
| GACGGTATCCTTATCGTGACGTGCTAG | 0.0658 z-score |
| AATATTCTGCTTTGCAATAAGTGCTAG | 0.64 z-score |
| GGCGGTATCGGGTTTCGGGACGTGCTA | 4.76 z-score |
| GACCATATCGGGACTGGAGACGTGCTA | 0.425 z-score |
